Published values pooled from the literature.
Protocols differ between the studies behind these lines. Numbers after ± are the reported error. Non-standard residues stand in square brackets, D forms with d. Square brackets hold non-standard residues; d marks the D form. Where no end group is shown, it is not given here. Ends that are not written are not given here. The star is where a group is joined. * marks the point of attachment.
Molecule type: peptide
DAXX: DAXX 55-144 (Homo sapiens, UniProt Q9UER7)
Sequence of UniProt Q9UER7 (whole entry, looked up): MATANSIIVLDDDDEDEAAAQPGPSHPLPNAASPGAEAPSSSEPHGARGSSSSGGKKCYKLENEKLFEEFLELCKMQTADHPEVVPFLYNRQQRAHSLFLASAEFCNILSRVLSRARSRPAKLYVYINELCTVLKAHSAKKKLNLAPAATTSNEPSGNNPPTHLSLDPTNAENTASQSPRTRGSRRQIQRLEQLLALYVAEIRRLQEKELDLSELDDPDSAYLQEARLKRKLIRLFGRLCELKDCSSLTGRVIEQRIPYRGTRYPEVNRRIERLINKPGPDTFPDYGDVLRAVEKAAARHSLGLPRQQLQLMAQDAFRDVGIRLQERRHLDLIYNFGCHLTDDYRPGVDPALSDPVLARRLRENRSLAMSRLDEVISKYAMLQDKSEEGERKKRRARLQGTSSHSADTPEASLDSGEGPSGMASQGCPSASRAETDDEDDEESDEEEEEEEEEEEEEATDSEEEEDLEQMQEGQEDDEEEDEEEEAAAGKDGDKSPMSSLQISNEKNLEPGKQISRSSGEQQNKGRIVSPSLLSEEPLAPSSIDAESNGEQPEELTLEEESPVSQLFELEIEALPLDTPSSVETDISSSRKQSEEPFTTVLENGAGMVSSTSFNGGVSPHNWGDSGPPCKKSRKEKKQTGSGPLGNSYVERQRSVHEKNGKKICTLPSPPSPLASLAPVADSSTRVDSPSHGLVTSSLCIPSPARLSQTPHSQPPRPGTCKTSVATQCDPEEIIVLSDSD
MCM6 C721S: MCM6 708-821 C721S (Homo sapiens, UniProt Q14566)
Sequence of UniProt P0ADV1 (whole entry, looked up): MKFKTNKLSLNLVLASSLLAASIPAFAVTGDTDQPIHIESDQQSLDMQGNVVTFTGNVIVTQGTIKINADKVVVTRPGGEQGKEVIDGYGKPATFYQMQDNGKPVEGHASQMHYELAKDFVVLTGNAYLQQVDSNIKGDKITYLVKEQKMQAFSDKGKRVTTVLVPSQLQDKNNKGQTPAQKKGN
Sequence of UniProt P29590 (whole entry, unmodified, looked up): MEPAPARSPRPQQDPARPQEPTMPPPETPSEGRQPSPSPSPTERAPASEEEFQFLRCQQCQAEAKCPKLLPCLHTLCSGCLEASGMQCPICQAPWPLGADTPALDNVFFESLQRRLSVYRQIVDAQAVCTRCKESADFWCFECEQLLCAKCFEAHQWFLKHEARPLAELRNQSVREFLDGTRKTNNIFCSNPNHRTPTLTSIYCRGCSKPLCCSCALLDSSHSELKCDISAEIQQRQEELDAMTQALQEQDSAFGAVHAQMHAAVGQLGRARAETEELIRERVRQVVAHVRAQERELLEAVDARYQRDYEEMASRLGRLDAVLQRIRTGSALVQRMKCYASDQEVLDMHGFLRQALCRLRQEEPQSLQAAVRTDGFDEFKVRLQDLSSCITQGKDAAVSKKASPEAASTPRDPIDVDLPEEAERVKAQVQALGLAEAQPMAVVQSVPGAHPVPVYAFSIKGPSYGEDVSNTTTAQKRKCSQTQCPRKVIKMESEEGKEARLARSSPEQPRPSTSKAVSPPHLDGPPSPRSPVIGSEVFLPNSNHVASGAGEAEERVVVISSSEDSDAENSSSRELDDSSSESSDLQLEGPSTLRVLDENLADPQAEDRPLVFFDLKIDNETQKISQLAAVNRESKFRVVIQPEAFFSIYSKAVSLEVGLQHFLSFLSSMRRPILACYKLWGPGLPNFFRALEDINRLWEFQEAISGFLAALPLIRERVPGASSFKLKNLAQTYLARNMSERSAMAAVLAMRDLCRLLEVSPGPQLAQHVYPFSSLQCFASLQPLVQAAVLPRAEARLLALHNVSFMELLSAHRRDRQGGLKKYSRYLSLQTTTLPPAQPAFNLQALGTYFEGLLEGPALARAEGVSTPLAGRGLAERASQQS
Sequence of UniProt Q8N2H9 (whole entry, looked up): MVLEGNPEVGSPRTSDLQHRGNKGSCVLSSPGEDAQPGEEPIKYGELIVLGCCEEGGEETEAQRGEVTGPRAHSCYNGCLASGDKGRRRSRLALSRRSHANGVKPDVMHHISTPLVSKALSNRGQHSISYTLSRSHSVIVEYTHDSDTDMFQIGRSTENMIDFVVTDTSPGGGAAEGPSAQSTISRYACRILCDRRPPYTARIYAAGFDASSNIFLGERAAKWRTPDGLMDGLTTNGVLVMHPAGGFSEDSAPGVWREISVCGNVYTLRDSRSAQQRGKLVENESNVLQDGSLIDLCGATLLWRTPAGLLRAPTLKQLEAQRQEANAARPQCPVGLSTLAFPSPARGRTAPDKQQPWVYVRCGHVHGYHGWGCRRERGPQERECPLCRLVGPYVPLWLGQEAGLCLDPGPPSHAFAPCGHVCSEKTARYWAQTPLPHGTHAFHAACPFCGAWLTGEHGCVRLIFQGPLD
Sequence of UniProt P62258 (whole entry, looked up): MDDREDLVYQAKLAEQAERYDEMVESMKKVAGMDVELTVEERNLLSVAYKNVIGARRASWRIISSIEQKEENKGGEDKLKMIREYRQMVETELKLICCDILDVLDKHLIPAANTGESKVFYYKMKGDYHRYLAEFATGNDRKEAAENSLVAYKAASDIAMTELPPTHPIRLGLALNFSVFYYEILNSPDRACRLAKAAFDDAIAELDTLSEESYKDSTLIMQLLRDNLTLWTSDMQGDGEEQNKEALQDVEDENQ
Sequence of UniProt P46971 (whole entry, looked up): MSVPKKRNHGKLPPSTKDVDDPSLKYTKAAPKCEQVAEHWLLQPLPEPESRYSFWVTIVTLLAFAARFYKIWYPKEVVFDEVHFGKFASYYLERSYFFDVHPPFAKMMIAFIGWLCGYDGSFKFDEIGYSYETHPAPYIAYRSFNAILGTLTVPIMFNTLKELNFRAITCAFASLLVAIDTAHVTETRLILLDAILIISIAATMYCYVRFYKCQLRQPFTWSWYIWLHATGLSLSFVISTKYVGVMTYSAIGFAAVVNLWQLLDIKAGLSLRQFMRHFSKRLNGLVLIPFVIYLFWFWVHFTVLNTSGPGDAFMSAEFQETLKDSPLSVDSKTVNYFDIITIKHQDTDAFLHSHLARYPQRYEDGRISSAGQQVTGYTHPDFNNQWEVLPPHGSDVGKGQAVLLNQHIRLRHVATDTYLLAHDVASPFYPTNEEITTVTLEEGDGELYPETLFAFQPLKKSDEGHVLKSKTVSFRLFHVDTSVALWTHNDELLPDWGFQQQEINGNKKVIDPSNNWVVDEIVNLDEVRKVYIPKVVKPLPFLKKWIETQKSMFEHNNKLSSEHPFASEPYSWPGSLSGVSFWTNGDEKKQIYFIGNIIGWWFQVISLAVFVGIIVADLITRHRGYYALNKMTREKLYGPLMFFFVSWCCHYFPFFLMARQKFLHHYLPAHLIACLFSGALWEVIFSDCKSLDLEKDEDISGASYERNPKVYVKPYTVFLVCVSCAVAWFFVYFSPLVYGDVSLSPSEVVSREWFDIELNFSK
Sequence of UniProt P20936 (whole entry, unmodified, looked up): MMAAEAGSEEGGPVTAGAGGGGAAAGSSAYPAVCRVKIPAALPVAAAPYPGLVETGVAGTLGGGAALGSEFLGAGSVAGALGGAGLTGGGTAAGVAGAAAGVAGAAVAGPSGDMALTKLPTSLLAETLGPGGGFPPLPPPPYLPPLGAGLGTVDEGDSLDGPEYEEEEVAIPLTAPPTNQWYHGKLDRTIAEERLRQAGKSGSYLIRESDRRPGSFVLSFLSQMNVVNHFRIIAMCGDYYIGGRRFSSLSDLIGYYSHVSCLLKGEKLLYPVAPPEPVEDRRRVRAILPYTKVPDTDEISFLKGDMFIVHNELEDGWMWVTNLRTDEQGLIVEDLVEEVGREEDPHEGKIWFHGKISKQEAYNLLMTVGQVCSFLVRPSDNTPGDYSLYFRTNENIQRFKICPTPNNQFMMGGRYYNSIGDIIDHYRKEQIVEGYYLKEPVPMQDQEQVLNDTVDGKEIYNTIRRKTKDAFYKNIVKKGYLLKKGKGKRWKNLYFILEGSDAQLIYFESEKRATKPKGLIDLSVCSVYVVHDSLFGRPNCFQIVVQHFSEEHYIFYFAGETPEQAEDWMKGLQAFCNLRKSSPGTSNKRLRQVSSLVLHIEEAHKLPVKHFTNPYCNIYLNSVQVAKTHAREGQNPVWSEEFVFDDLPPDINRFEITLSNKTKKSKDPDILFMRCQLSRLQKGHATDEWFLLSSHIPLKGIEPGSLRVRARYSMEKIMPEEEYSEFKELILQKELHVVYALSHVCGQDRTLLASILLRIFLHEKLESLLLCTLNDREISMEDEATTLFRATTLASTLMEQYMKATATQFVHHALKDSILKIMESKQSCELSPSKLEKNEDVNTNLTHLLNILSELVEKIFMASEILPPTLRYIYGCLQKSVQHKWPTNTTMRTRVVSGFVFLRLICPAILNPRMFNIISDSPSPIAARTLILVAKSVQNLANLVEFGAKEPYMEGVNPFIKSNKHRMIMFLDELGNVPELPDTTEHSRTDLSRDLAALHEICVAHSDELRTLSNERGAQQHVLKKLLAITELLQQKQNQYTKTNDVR
Sequence of UniProt P25089 (whole entry, looked up): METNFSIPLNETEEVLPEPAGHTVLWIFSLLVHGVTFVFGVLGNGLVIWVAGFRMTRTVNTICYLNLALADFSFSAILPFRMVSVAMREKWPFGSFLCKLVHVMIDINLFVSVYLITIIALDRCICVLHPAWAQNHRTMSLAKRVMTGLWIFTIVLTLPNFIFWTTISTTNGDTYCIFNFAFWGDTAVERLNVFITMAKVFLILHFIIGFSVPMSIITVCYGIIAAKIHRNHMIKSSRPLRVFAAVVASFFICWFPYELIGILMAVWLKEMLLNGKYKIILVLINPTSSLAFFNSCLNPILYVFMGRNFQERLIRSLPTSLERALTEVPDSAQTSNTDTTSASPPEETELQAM

SRHSCIFPGQYNPSFISDESRRRDYF (HEG1 1356-1381 (Homo sapiens, UniProt Q9ULI3); sequence looked up)
Kd (KRIT1 417-736 (Homo sapiens, UniProt O00522); ITC): 1.2 ± 0.14 µM

ASKTSTNATSSSCATPSLKD (CCW5 108-127 (Saccharomyces cerevisiae))
Kd (PMT4 330-521 (Saccharomyces cerevisiae, UniProt P46971); ITC; pH 7.5, 4 °C): 12 ± 0.9 µM

NDPENRIAKKMLLEEIKANLSSDEDG (ATRX 1265-1290 (Homo sapiens, UniProt P46100); sequence looked up)
Kd (DAXX; ITC; pH 7.5, 25 °C): 1.23 µM

{FITC}-WLSSDVICI (BLM 230-238 (Homo sapiens, UniProt P54132); N-terminal FITC; FITC = O=C1OC2(c3ccc(O)cc3Oc3cc(O)ccc32)c2ccc(NC(=S)*)cc21; sequence looked up)
Kd (MCM6 C721S; fluorescence polarisation; pH 6.5, NaCl 50 mM): 83.2 ± 3.7 µM

Ac-DPSD[pY]AEPMDAVVKPRNEEENI[pY]SVPHDS-NH2 (ARHGAP35 residues 1083-1111 (Homo sapiens); pY1087/pY1105, N-acetyl, C-amide; pY = N[C@@H](Cc1ccc(OP(=O)(O)O)cc1)C(=O)O)
Kd (RASA1 174-444 C236S/C261S/C372S/C402S (Homo sapiens, UniProt P20936); ITC; pH 8.0, NaCl 250 mM): 0.01 µM

MWPHRVTAAK (peptide; cyclic DSG, fluorescein)
Kd (MAP1LC3A (Homo sapiens, UniProt Q9H492); fluorescence polarisation): 0.101 ± 0.022 µM

{TAMRA}-RRRAV[pS]MDNSN (FOXO3 248-258 (human); pS253, N-terminal TAMRA; TAMRA = tetramethylrhodamine; pS = N[C@@H](COP(=O)(O)O)C(=O)O)
Kd (YWHAE (Homo sapiens, UniProt P62258); fluorescence polarisation; pH 7.5): 5.4 µM

SGAGEAEERVVVIDDDEDDDAENSSSRY (PML 547-573 S560D/S561D/S562D/S565D (Homo sapiens, UniProt P29590))
Kd (SUMO2 2-93 C48A (Homo sapiens, UniProt P61956); ITC; pH 7.4, 25 °C, NaCl 50 mM, together with: ZnSO4 1 mM): 6.5 ± 1.2 µM

MLGMIKNSLFGSVETWPWQVLY (F2L 1-21 plus C-terminal Tyr (Homo sapiens); 125I-Tyr)
Kd (FPR3 (Homo sapiens, UniProt P25089); radioligand binding; CHO-K1): 0.0117 µM

VPCIEFDDDDYDTDF (BLM 286-300 (Homo sapiens, UniProt P54132); FITC label; sequence looked up)
Kd (MCM6 C721S; fluorescence polarisation; pH 6.5, NaCl 50 mM): 69.8 ± 4.5 µM

fluorescein-YSSAS[pT]FLSP-NH2 (IRAK1 residues 137-145 (Homo sapiens, UniProt P51617); also: fluorescein: FITC or 5,6-FAM; pT141, C-terminal amide, N-terminal fluorescein; pT = C[C@@H](OP(=O)(O)O)[C@H](N)C(=O)O)
Kd (PELI3 40-305 (Homo sapiens, UniProt Q8N2H9); fluorescence polarisation; 25 °C): 9.8 µM

DNDPENRIAKKMLLEEIKANLS (ATRX 1264-1285 (Homo sapiens, UniProt P46100); sequence looked up)
Kd (DAXX; ITC; pH 7.5, 25 °C): 0.75 µM

GSKKPVPIIYCNRKTGKCQRM (Podisus maculiventris peptide mature R14K (Podisus maculiventris, UniProt P55788); sequence looked up)
Kd (lptA 28-158 (Escherichia coli, UniProt P0ADV1); BLI; 25 °C, steady-state fit): 0.0015 µM

DDNDPENRIAKKMLLEEIKANLSSDEDG (ATRX 1263-1290 (Homo sapiens, UniProt P46100); sequence looked up)
Kd (DAXX; ITC; pH 7.5, 25 °C): 0.97 µM

{FITC}-GFID[pS]D[pT]DVEEE-NH2 (peptide; N-terminal FITC, pS5, pT7, C-terminal amide; FITC = O=C1OC2(c3ccc(O)cc3Oc3cc(O)ccc32)c2ccc(NC(=S)*)cc21; pS = N[C@@H](COP(=O)(O)O)C(=O)O; pT = C[C@@H](OP(=O)(O)O)[C@H](N)C(=O)O)
Kd (TOPBP1 641-746 K686E/K687E (Homo sapiens, UniProt Q92547); fluorescence polarisation; pH 7.5, NaCl 150 mM): 130 ± 20 µM

DDDDNDPENRIAKKMLLEEIKANLSSDEDG (ATRX 1261-1290 (Homo sapiens, UniProt P46100); sequence looked up)
Kd (DAXX; ITC; pH 7.5, 25 °C): 0.24 µM

fluorescein-GYSEVNLSKLFAGCAVKS (POLA1 residues 1445-1462 (Homo sapiens); N-terminal fluorescein; fluorescein = fluorescein label on the N-terminus)
Kd (PRIM1/PRIM2 PRIM1 1-420, PRIM2 1-462 K72A/M73A (Homo sapiens); fluorescence polarisation; pH 7.2, together with: fluorescein-labeled peptide 30 nM): 0.245 µM

A few entries again:
{FITC}-WLSSDVICI (BLM 230-238 (Homo sapiens, UniProt P54132); N-terminal FITC; FITC = O=C1OC2(c3ccc(O)cc3Oc3cc(O)ccc32)c2ccc(NC(=S)*)cc21; sequence looked up)
Kd (MCM6 C721S; fluorescence polarisation; pH 6.5, NaCl 50 mM): 83.2 ± 3.7 µM

VPCIEFDDDDYDTDF (BLM 286-300 (Homo sapiens, UniProt P54132); FITC label; sequence looked up)
Kd (MCM6 C721S; fluorescence polarisation; pH 6.5, NaCl 50 mM): 69.8 ± 4.5 µM
